Assay results pooled from the literature.
A part holds a random share of what one study measured. “And” joins repeats or separate records; there may be more than shown.
UniProt Q15418, sequence (whole entry, looked up): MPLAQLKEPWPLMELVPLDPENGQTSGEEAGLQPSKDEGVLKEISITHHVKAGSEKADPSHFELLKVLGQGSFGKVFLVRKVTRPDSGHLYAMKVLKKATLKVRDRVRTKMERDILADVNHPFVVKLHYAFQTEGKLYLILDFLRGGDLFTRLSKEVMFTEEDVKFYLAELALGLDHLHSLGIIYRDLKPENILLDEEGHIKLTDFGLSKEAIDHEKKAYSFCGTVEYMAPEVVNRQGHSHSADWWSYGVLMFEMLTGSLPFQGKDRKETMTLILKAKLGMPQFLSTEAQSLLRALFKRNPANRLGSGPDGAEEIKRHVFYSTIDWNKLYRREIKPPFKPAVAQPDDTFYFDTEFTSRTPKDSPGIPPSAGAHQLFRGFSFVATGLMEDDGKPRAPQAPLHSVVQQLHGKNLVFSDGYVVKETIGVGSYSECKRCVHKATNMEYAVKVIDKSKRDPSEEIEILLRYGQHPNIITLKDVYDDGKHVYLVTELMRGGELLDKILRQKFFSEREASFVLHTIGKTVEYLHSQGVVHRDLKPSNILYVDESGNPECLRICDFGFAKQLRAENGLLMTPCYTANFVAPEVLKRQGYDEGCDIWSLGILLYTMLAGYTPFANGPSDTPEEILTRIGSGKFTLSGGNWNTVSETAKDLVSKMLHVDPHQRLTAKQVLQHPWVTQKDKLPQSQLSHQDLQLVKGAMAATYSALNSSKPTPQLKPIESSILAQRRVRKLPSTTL
UniProt P06239, sequence (whole entry, looked up): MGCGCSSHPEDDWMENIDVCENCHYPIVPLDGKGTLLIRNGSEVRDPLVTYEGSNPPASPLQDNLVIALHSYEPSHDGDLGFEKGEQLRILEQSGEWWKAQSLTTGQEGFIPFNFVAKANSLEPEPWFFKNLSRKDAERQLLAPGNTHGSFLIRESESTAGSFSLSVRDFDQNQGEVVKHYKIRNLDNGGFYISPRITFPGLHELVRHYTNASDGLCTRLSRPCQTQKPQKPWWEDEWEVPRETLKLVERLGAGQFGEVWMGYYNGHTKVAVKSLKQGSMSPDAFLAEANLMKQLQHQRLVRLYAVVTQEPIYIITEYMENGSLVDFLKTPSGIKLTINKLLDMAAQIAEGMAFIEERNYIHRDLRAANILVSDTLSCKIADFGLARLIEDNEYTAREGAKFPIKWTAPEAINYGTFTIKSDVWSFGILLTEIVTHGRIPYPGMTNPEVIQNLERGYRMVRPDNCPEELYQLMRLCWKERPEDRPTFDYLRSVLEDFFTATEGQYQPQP
UniProt P07949, sequence (whole entry, looked up): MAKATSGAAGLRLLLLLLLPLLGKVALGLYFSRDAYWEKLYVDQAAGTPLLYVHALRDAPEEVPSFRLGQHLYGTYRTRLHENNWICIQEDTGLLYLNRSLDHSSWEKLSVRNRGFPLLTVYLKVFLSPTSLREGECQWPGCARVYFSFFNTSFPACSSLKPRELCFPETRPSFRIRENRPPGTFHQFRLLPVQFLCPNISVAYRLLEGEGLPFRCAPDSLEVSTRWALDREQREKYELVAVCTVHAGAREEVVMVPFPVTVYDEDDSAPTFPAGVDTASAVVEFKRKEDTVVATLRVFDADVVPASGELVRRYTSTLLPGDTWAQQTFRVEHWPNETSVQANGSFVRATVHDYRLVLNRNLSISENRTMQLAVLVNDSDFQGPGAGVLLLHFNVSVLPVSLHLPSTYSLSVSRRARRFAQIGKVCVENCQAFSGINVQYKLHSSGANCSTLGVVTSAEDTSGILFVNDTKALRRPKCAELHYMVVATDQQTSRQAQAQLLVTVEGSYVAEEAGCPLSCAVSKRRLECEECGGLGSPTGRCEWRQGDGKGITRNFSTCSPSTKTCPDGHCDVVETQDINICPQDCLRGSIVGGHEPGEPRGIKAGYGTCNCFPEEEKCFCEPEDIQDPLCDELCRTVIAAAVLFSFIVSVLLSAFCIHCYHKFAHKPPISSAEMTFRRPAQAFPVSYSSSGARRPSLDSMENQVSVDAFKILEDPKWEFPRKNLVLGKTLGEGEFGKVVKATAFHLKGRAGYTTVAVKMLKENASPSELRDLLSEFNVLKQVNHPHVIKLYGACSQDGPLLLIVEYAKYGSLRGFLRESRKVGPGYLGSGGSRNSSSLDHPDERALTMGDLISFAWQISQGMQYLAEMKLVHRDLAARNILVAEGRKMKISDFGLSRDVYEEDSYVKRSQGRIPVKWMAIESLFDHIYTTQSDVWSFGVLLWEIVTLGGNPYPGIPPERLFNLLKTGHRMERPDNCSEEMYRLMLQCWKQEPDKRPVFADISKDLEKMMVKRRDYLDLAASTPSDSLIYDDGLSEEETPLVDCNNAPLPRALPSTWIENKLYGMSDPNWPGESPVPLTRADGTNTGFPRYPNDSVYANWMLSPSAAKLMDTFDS

Study 1 — observed: enzyme activity; mode: inhibitor; tested at: 0.5 µM; relative to: control
Structure (SMILES): Cn1c2ccccc2c2c3c(c4c5ccccc5n(CCC#N)c4c21)CNC3=O
target	remaining activity [%]
Aurora kinase C (AURKC, Homo sapiens, UniProt Q9UQB9)	55.7
GSK3A (Homo sapiens, UniProt P49840)	35.6
RPS6KB1 (Homo sapiens, UniProt P23443)	6.71
GRK6 (Homo sapiens, UniProt P43250)	44.4
FLT3 (Homo sapiens, UniProt P36888)	5.27
BMX (Homo sapiens, UniProt P51813)	13.7
GRK2 (Homo sapiens, UniProt P25098)	103
CSK (Homo sapiens, UniProt P41240)	81
PAK2 (Homo sapiens, UniProt Q13177)	91.7
PIM2 (Homo sapiens, UniProt Q9P1W9)	101
EPHB2 (Homo sapiens, UniProt P29323)	77.7
PRKCE (Homo sapiens, UniProt Q02156)	58.5
NUAK1 (Homo sapiens, UniProt O60285)	3.86
MYLK (Homo sapiens, UniProt Q15746)	24.6
CSF1R (Homo sapiens, UniProt P07333)	84.1
PRKCG (Homo sapiens, UniProt P05129)	72.1
SGK1 (Homo sapiens, UniProt O00141)	79.1
SRPK3 (Homo sapiens, UniProt Q9UPE1)	92.8
FGFR4 (Homo sapiens, UniProt P22455)	86.5
RPS6KA1 (Homo sapiens, UniProt Q15418)	9.7
EPHA7 (Homo sapiens, UniProt Q15375)	62.6

Study 2 — technique: competition with immobilised ligand; tested at: 1 µM
SMILES: COc1cccc(CNC(=O)c2nc3scc(COCc4ccc(C(=O)O)cc4)c3c(=O)[nH]2)c1
target	assay	remaining binding [%]
MAPK10 (Homo sapiens, UniProt P53779)	cell-free assay	76.6
Ribosomal protein S6 kinase alpha-1, C-terminal kinase domain (RPS6KA1, Homo sapiens, UniProt Q15418)	cell-free assay	100
STK33 (Homo sapiens, UniProt Q9BYT3)	cell-free assay	100
PAK3 (Homo sapiens, UniProt O75914)	cell-free assay	51.9
Myosin-IIIb (MYO3B, Homo sapiens, UniProt Q8WXR4)	cell-free assay	100
PIK3CG (Homo sapiens, UniProt P48736)	cell-free assay	76.8
ULK3 (Homo sapiens, UniProt Q6PHR2)	cell-free assay	76
Ribosomal protein S6 kinase alpha-5, N-terminal kinase domain (RPS6KA5, Homo sapiens, UniProt O75582)	cell-free assay	98
EPHB4 (Homo sapiens, UniProt P54760)	cell-free assay	89.4
TSSK3 (Homo sapiens, UniProt Q96PN8)	cell-free assay	81.4
NEK1 (Homo sapiens, UniProt Q96PY6)	cell-free assay	100
RET (Homo sapiens, UniProt P07949)	cell-free assay	72.3
Tyrosine-protein kinase ABL1, phosphorylated (ABL1, Homo sapiens, UniProt P00519, E255K)	binding	83
RIOK2 (Homo sapiens, UniProt Q9BVS4)	cell-free assay	72.4
MAPK15 (Homo sapiens, UniProt Q8TD08)	cell-free assay	82.4
MAP3K2 (Homo sapiens, UniProt Q9Y2U5)	cell-free assay	65.5
MAPK12 (Homo sapiens, UniProt P53778)	cell-free assay	92.1
Tyrosine-protein kinase ABL1, non-phosphorylated (ABL1, Homo sapiens, UniProt P00519, Q252H)	cell-free assay	86.4
LCK (Homo sapiens, UniProt P06239)	cell-free assay	100
MARK3 (Homo sapiens, UniProt P27448)	cell-free assay	100
ROS1 (Homo sapiens, UniProt P08922)	cell-free assay	100
CAMKK1 (Homo sapiens, UniProt Q8N5S9)	cell-free assay	100
BTK (Homo sapiens, UniProt Q06187)	cell-free assay	63
IRAK4 (Homo sapiens, UniProt Q9NWZ3)	cell-free assay	85
MAP4K4 (Homo sapiens, UniProt O95819)	cell-free assay	92.3

Study 3 — cell line: A-375; tested at: 100 µM; time: 18 h
SMILES	viability [%]
CC1=C(CC(=O)O)c2cc(F)ccc2/C1=C\c1ccc([S+](C)[O-])cc1 (stereo not drawn)	98.9
CCc1c(C)[nH]c2c1C(=O)C(CN1CCOCC1)CC2 (stereo not drawn)	91
COc1ccc2[nH]cc(CCNC(C)=O)c2c1	107
CC(C)[C@H](N)C(=O)OCCOCn1cnc2c(=O)[nH]c(N)nc21	94.9
CC(C)(C)C(=O)OCOP(=O)(COCCn1cnc2c(N)ncnc21)OCOC(=O)C(C)(C)C	66.6
C=CC1=C(C(=O)O)N2C(=O)[C@@H](NC(=O)/C(=N\OCC(=O)O)c3csc(N)n3)[C@H]2SC1	105
O=c1[nH]cnc2c1ncn2[C@H]1CC[C@@H](CO)O1	104
Cn1c(=O)c2c(ncn2CC2OCCO2)n(C)c1=O	107
C#C[C@]1(O)CC[C@H]2[C@@H]3CCC4=CC(=O)CC[C@@H]4[C@H]3CC[C@@]21CC	92.2
Cc1cc(=O)oc2cc(O)ccc12	76.1

Study 4 — observed: enzyme activity; mode: inhibitor; tested at: 77 µM; relative to: untreated
Target: DNA polymerase theta, ATPase domain (POLQ, Homo sapiens, UniProt O75417)
UniProt O75417, sequence (whole entry, unmodified, looked up): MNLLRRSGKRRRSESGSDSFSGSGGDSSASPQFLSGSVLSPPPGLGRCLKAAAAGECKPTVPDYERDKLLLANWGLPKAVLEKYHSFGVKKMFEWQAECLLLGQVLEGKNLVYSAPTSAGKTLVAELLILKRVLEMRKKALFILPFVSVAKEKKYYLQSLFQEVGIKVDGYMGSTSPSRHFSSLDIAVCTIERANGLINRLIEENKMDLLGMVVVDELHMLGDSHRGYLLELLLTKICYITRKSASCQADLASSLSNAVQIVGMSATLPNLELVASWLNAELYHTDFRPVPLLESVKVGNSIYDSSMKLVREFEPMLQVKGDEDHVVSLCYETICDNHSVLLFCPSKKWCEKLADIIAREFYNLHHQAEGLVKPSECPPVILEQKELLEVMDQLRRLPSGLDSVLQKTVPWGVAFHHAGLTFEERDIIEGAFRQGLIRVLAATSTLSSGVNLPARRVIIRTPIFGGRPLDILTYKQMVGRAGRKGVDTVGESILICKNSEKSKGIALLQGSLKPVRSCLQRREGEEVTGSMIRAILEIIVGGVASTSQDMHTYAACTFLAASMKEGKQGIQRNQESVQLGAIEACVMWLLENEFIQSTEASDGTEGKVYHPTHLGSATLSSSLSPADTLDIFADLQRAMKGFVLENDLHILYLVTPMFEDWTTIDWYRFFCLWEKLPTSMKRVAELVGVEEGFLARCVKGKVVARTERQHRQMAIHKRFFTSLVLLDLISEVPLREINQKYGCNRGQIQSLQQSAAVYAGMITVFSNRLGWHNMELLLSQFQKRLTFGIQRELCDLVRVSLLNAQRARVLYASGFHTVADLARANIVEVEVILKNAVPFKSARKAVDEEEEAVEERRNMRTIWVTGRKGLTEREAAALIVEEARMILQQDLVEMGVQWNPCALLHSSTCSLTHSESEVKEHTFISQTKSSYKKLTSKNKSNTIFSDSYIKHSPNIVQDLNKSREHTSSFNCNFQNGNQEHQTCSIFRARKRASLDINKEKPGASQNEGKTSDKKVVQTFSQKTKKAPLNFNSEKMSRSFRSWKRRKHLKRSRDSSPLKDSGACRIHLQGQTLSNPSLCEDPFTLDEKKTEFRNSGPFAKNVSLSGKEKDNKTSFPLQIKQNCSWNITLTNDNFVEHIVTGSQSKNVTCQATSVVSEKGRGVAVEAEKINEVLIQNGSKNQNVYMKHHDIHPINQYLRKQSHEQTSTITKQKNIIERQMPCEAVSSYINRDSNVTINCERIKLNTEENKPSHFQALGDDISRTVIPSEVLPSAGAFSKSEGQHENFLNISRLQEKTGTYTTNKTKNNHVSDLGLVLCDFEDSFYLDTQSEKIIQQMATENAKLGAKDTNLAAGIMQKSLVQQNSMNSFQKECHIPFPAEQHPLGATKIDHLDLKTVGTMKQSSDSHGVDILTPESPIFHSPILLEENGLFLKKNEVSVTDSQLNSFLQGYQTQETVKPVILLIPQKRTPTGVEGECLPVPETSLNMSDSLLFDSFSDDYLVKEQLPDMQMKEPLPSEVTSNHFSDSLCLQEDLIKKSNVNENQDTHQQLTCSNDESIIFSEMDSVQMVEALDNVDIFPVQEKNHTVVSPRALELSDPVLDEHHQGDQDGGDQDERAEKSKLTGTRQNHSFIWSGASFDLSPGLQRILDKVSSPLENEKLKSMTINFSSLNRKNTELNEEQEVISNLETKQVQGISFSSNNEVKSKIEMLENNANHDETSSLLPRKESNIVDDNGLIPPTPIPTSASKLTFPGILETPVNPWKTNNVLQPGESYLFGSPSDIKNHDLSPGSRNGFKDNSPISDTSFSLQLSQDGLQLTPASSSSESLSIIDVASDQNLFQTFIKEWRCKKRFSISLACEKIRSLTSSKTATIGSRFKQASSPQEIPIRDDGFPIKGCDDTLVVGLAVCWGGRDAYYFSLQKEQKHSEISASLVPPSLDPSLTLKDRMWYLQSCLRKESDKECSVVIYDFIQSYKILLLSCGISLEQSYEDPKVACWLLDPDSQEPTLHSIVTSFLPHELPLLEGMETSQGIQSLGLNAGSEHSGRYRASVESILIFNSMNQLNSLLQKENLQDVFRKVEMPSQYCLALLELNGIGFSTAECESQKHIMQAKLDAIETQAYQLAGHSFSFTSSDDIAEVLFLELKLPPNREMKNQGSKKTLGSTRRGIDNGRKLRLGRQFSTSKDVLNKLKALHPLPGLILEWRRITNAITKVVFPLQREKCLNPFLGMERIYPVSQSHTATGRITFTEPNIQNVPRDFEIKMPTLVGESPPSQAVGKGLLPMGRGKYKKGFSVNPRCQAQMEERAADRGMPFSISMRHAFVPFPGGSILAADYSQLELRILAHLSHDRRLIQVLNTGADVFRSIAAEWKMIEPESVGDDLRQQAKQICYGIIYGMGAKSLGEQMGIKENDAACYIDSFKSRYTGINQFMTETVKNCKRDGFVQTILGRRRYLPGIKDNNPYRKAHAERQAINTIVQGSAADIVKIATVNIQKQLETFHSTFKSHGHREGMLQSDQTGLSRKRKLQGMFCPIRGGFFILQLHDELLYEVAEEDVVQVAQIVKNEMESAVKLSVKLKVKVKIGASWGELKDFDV
SMILES	remaining activity
Nc1nc2[nH]c(=O)cnc2c(=O)[nH]1	92.4%
CCOc1nc2cccc(C(=O)OC(C)OC(=O)OC3CCCCC3)c2n1Cc1ccc(-c2ccccc2-c2nn[nH]n2)cc1 (stereo not drawn)	78%
CO[C@H]1/C=C/O[C@@]2(C)Oc3c(C)c(O)c4c(O)c(c(/C=N/N5CCN(C)CC5)c(O)c4c3C2=O)NC(=O)/C(C)=C\C=C\[C@H](C)[C@H](O)[C@@H](C)[C@@H](O)[C@@H](C)[C@H](OC(C)=O)[C@@H]1C	100% and 97.8%
Cc1[nH]c2ccccc2c1CCNCc1ccc(/C=C/C(=O)NO)cc1	102%
CNC1CCCN(c2c(F)cc3c(=O)c(C(=O)O)cn(C4CC4)c3c2OC)C1 (stereo not drawn)	94%
COc1ccc([C@]2(C#N)CC[C@@H](C(=O)O)CC2)cc1OC1CCCC1	102%
O=C1/C(=C/c2cccs2)CC/C1=C\c1cccs1	97.7%

Excerpt of the above (study 3):
SMILES	viability [%]
CC1=C(CC(=O)O)c2cc(F)ccc2/C1=C\c1ccc([S+](C)[O-])cc1 (stereo not drawn)	98.9
CCc1c(C)[nH]c2c1C(=O)C(CN1CCOCC1)CC2 (stereo not drawn)	91
COc1ccc2[nH]cc(CCNC(C)=O)c2c1	107
CC(C)[C@H](N)C(=O)OCCOCn1cnc2c(=O)[nH]c(N)nc21	94.9
CC(C)(C)C(=O)OCOP(=O)(COCCn1cnc2c(N)ncnc21)OCOC(=O)C(C)(C)C	66.6
C=CC1=C(C(=O)O)N2C(=O)[C@@H](NC(=O)/C(=N\OCC(=O)O)c3csc(N)n3)[C@H]2SC1	105
O=c1[nH]cnc2c1ncn2[C@H]1CC[C@@H](CO)O1	104
Cn1c(=O)c2c(ncn2CC2OCCO2)n(C)c1=O	107
